Results pooled from the literature.
Compare with care: the assays were run in different laboratories. ± marks the error that the study gave.

Structure (SMILES) | assay | system | conditions | Tmax [h]
CC1=C2C[C@H]3[C@@H](CC[C@@H]4C[C@H](NS(C)(=O)=O)CC[C@@]43C)[C@@H]2CC[C@@]2(C1)O[C@@H]1C[C@H](C)CN[C@H]1[C@H]2C |  | patients, plasma | oral, 40 mg single, day -7, cycle 1 | 5
O=C1CCc2ccc(OCCCCN3CCN(c4cccc(Cl)c4Cl)CC3)cc2N1 |  | healthy Japanese men, CYP2D6 EM, plasma | oral, 3 mg aripiprazole single, with: fluvoxamine 100 mg/day | 2 ± 1.5
NC(=O)c1cnc2[nH]ccc2c1N[C@@H]1[C@@H]2CC3C[C@H]1C[C@@](O)(C3)C2 |  | healthy Japanese men, plasma | oral, 200 mg, single dose fasted median | 2
Cc1ccc(Sc2ccccc2N2CCNCC2)c(C)c1 |  | healthy men, plasma | oral, 5 mg once daily, fed, day 1 | 11.8
CC(C)=CCC[C@](C)(O[C@@H]1O[C@H](CO)[C@@H](O)[C@H](O)[C@H]1O)[C@H]1CC[C@]2(C)[C@@H]1[C@H](O)C[C@@H]1[C@@]3(C)CC[C@H](O[C@@H]4O[C@H](CO)[C@@H](O)[C@H](O)[C@H]4O)C(C)(C)[C@@H]3CC[C@]12C | LC-MS/MS | healthy male volunteers, serum | oral, 3 g red ginseng | 6.85 ± 3.18
CN[C@H](CC(C)C)C(=O)N[C@H]1C(=O)N[C@@H](CC(N)=O)C(=O)N[C@H]2C(=O)N[C@H]3C(=O)N[C@H](C(=O)N[C@H](C(=O)O)c4cc(O)cc(O)c4-c4cc3ccc4O)[C@H](O)c3ccc(c(Cl)c3)Oc3cc2cc(c3O[C@@H]2O[C@H](CO)[C@@H](O)[C@H](O)[C@H]2O[C@H]2C[C@](C)(N)[C@H](O)[C@H](C)O2)Oc2ccc(cc2Cl)[C@H]1O | microdialysis | pig, intervertebral disc | intravenous infusion, 1000 mg, infusion 100 min | 4.5
COc1cc(OC)c(/C=C/S(=O)(=O)Cc2ccc(OC)c(NCC(=O)O)c2)c(OC)c1 |  | cancer patients, phase I, plasma | oral, 700 mg twice daily, day 21 cycle 1 | 1.25 ± 0.35
COc1ccc2c3c1O[C@H]1C[C@@H](OC(=O)c4ccccc4)C=C[C@@]31CCN(C)C2 |  | healthy young men, plasma | intranasal, 11 mg, single dose | 0.48
CCOc1ccc(Cc2cc([C@@H]3S[C@H](CO)[C@@H](O)[C@H](O)[C@H]3O)c(OC)cc2C)cc1 |  | Japanese type 2 diabetes patients, plasma | oral, 5 mg single dose, eGFR 60-89 mL/min/1.73 m^2, median | 0.5
CS(=O)(=O)n1cc2c(n1)CN([C@H]1CO[C@H](c3cc(F)ccc3F)[C@@H](N)C1)C2 |  | healthy Japanese men, plasma | oral, 50 mg once weekly, day 15 | 1
Cc1ccc(NC(=O)c2ccc(CN3CCN(C)CC3)cc2)cc1Nc1nccc(-c2cncc(-c3oncc3C)c2)n1 |  | Parkinson's disease patients, plasma | oral, 50.0 mg once daily, day 1, 7-day dosing, mean | 4.66

A few entries again:
Structure (SMILES) | assay | system | conditions | Tmax [h]
CS(=O)(=O)n1cc2c(n1)CN([C@H]1CO[C@H](c3cc(F)ccc3F)[C@@H](N)C1)C2 |  | healthy Japanese men, plasma | oral, 50 mg once weekly, day 15 | 1
